Measurements gathered from unrelated publications.
Each line is one published result; not all experiments were run side by side. “And” joins repeats or separate records; there may be more than shown. ± marks the error that the study gave.
ache: Acetylcholinesterase (ache, Electrophorus electricus, UniProt O42275)
Sequence of UniProt O42275 (whole entry, looked up): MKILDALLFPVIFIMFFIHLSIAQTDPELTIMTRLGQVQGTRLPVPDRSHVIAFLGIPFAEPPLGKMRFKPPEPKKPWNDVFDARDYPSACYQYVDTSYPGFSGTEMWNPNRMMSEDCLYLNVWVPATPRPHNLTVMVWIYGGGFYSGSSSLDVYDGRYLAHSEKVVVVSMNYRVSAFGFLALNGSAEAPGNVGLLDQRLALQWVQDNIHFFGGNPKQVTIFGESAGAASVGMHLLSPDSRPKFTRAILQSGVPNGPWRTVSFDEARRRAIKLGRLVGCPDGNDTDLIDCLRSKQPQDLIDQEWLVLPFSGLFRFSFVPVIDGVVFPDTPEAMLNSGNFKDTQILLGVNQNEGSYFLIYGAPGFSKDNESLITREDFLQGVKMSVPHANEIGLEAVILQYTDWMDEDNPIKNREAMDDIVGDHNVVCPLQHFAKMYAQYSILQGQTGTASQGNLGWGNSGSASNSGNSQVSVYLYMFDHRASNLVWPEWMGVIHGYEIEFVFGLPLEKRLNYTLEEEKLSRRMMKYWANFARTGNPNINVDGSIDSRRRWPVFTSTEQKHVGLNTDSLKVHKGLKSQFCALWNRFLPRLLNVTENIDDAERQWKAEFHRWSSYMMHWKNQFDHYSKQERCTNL
Tmem97: Sigma intracellular receptor 2 (Tmem97, Rattus norvegicus, UniProt Q5U3Y7)
Sequence of UniProt P27361 (whole entry, looked up): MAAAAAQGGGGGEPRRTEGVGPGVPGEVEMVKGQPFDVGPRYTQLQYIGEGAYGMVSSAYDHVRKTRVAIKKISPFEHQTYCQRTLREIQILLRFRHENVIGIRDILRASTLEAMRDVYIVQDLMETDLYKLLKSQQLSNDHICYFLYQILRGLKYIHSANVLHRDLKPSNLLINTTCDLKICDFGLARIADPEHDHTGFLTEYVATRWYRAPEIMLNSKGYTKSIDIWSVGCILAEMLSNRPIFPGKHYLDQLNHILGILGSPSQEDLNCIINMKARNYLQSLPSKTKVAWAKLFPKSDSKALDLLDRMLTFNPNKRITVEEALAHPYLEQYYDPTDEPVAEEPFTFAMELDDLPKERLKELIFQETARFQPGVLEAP
Sequence of UniProt P03372 (whole entry, unmodified, looked up): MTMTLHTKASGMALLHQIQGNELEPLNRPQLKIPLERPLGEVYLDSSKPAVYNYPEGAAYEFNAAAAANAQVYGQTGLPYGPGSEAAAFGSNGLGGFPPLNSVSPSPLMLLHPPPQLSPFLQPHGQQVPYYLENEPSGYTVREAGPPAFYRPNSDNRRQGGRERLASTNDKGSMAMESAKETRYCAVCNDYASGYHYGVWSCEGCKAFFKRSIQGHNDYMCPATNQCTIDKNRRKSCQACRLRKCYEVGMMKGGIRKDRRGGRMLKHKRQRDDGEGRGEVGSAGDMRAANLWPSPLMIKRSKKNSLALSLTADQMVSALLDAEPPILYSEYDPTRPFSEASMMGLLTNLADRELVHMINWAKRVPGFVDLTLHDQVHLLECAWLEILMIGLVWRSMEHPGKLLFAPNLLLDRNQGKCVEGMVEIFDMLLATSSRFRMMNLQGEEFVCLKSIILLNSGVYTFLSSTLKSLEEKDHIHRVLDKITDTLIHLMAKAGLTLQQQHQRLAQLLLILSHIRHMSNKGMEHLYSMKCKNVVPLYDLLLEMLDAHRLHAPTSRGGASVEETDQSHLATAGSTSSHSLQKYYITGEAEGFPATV
Sequence of UniProt Q5U3Y7 (whole entry, looked up): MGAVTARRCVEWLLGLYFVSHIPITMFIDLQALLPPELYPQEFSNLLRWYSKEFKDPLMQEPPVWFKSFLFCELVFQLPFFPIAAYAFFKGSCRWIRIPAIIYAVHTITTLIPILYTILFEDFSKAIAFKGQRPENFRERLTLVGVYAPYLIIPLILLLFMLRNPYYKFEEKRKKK
Sequence of UniProt P47870 (whole entry, looked up): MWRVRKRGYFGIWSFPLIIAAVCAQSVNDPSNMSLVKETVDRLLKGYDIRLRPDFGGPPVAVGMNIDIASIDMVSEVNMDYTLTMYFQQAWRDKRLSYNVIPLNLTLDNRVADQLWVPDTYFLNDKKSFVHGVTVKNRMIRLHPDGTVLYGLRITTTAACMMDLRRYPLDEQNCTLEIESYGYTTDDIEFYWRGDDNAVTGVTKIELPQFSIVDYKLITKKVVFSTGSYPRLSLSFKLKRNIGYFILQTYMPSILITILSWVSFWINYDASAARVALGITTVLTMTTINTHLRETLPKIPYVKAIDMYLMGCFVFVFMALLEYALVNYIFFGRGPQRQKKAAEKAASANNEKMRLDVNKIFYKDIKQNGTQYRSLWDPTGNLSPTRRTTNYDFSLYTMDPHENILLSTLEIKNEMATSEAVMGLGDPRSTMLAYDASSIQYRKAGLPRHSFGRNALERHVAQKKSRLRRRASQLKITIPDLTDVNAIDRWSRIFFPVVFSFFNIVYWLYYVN
Sequence of UniProt P42262 (whole entry, looked up): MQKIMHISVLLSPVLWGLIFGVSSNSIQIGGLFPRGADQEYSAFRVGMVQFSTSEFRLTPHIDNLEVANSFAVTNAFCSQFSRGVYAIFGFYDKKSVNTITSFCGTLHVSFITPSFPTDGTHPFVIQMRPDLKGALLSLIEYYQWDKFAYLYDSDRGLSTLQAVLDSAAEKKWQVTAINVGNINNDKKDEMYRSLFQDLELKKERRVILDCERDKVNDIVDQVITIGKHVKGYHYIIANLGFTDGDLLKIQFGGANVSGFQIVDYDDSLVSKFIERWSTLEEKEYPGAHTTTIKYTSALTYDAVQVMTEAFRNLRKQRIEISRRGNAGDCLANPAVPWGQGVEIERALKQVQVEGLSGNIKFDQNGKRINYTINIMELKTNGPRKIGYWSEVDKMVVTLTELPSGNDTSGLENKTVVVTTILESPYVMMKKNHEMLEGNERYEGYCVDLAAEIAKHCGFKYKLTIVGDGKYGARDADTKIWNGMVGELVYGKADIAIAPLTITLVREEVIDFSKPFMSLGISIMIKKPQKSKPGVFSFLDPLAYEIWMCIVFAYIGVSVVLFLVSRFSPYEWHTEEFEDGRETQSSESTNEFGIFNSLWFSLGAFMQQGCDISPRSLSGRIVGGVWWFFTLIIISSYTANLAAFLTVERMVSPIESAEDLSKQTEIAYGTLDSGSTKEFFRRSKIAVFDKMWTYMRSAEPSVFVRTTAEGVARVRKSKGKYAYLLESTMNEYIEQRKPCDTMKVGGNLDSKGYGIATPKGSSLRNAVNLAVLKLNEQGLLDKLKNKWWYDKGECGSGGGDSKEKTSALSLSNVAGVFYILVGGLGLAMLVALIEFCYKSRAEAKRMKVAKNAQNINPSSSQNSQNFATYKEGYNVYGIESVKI
Sequence of UniProt Q01718 (whole entry, looked up): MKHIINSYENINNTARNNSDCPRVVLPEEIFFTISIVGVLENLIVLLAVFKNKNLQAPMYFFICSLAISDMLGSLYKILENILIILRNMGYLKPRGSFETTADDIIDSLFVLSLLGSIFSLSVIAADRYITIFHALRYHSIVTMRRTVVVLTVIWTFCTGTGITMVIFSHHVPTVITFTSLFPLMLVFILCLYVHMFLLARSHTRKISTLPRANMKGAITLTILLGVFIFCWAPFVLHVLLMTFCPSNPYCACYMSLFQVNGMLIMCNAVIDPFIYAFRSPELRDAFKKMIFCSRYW
Sequence of UniProt Q13224 (whole entry, unmodified, looked up): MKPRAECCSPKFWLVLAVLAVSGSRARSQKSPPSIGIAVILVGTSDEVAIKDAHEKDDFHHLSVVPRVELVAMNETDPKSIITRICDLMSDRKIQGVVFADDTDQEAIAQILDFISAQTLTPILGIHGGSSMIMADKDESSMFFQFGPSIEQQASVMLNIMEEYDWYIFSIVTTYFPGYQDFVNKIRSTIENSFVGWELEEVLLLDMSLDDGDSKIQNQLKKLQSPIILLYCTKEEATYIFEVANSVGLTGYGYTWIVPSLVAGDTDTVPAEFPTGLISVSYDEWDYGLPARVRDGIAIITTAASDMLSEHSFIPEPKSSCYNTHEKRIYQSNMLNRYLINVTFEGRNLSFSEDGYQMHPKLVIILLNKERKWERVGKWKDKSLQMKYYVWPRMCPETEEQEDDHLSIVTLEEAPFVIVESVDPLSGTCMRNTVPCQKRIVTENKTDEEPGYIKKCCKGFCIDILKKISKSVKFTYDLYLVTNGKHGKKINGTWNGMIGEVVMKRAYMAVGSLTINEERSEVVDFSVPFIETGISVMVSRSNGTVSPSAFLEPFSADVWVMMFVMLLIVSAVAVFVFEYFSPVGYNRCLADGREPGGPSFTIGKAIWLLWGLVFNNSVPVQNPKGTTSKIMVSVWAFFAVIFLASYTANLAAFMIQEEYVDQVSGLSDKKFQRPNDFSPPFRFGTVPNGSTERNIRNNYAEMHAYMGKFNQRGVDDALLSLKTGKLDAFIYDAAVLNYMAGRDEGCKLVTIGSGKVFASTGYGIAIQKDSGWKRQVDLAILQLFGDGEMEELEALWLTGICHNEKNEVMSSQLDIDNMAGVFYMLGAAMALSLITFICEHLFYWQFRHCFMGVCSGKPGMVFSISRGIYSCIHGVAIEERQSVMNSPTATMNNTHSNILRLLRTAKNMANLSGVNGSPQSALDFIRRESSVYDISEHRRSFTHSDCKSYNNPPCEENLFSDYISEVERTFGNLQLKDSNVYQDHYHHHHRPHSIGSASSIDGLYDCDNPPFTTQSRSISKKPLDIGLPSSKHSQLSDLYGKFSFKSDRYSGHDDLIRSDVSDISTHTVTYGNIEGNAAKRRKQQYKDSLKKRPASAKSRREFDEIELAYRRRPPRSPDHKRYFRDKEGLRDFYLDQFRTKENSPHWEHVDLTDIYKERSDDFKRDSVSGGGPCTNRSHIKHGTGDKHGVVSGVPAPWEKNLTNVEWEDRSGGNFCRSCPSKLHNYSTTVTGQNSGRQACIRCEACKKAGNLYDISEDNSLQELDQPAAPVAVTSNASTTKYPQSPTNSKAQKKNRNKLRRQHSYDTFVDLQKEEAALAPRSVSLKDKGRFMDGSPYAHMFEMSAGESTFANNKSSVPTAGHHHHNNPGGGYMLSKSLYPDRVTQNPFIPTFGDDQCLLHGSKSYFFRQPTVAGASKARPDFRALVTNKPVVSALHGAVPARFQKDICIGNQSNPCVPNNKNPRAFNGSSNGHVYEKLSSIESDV

SMILES | target or system | assay | test system | conditions | how to read | measurement | value
NCc1cc(=O)[nH]o1 | GABA-A receptor; GABA-A site (alpha1/beta2 interface), with gamma-2 subunit (Homo sapiens, UniProt P14867+P47870) | agonist-activated current, whole-cell patch clamp | HEK293 stably expressing | agonist concentration-response |  | Hill coefficient | 1.2 ± 0.1
CN1CCN(c2cc(-c3ccncc3)c(-c3ccc4ccccc4c3)nn2)CC1 | Adrenocorticotropic hormone receptor (MC2R, Homo sapiens, UniProt Q01718) | antagonist, FLIPR |  | 10 µM |  | inhibition | 21.9%
COc1ccc(N2C(=O)N(c3c(C)cccc3Cl)Cc3cnc(Nc4ccc(C5CCN(C)CC5)cc4OC)nc32)nc1 | Tyrosine-protein kinase Fgr (FGR, Homo sapiens, UniProt P09769) | kinase activity |  | 0.5 µM |  | inhibition | 94%
Nc1nc2c(ncn2[C@@H]2O[C@H](COP(=O)(O)OP(=O)(O)OP(=O)(O)O)[C@@H](O)[C@H]2O)c(=O)[nH]1 | GTP 3',8-cyclase (moaA, Staphylococcus aureus, UniProt P69848, R266K) | isothermal titration calorimetry |  | concentration not given, 25 °C, R266K mutant, anaerobic |  | binding entropy ΔS | 14.4 cal/mol/K
O=C(Cc1ccccc1)N[C@H]1CCOC1=O | Regulatory protein SdiA (sdiA, Escherichia coli, UniProt P07026) |  |  |  |  | Emax | 106%
CN1C(=O)CC[C@H](N2Cc3c(ccc4c3OCC43CCN(C[C@@H]4CCC5(CCN(c6ccc([C@@H]7c8ccc(O)cc8CC[C@@H]7c7ccccc7)cc6)CC5)OC4)CC3)C2=O)C1=O | Estrogen receptor (ESR1, Homo sapiens, UniProt P03372, D538G) | degrader, Western blot | MCF7 (ESR1 D538G) | 10 and 100 nM, 7 h |  | ER protein level | no effect
O=C(NCCCN1CCCCCC1)c1ccc2c(c1)sc1nc(-c3ccccc3)cn12 | Vero-E6 | CellTiter-Glo ATP |  | 72 h, retest 8-point duplicates | baseline: DMSO 0%, hyamine -100%, more negative, more toxic | maximum response | -32.5%
O=c1c2ccccc2oc2cc(OCCCCc3ccccc3)ccc12 | ache | enzyme activity |  | 2.91 µM, with: substrate 6.90 mM | higher = faster reaction | reaction velocity | 0.003 a.u.
[2H]c1c([2H])c([C@]2([2H])CCCN2C(=O)C(C)(C)Oc2ccc3cn[nH]c3c2)c([2H])c([2H])c1C([2H])([2H])[2H] | Tyrosine-protein kinase JAK2 (JAK2, Homo sapiens, UniProt O60674) | KINOMEscan |  | 1 µM | baseline: DMSO control | remaining binding | 86%
COc1cc(N)c(Cl)cc1C(=O)NC1CN2CCC1CC2 (centres unmarked) | Mas-related G-protein coupled receptor MRG (MAS1L, Homo sapiens, UniProt P35410) | β-arrestin recruitment, TANGO luminescence, item: MAS1L |  | concentration not given | baseline: basal luminescence | log2 fold change | 0.177
CC#C[C@]1(O)CC[C@H]2[C@@H]3CCC4=CC(=O)CCC4=C3[C@@H](c3ccc(N(C)C)cc3)C[C@@]21C | Protein cereblon (CRBN, Homo sapiens, UniProt Q96SW2) | binding, affinity selection mass spectrometry |  | 100 nM, pooled screen | baseline: other proteins | fold change | 12.2
Nc1ncnc2c1ncn2[C@@H]1O[C@H](COP(=O)(O)OP(=O)(O)OP(=O)(O)O)[C@@H](O)[C@H]1O | ATP-sensitive inward rectifier potassium channel 11 (Homo sapiens, UniProt Q14654) | single-channel patch clamp |  | concentration not given, reactivation after rundown |  | long open time constant | 3 ± 0.3 ms
O=C(Nc1cnccc1Cl)N1CCN(Cc2ccc3c(c2)OC(F)(F)O3)CC1 | Tmem97 | radioligand binding, inhibitor |  | 50 µM, rat, with: [3H]ifenprodil |  | inhibition | 69%
O=C(O)Cc1c[nH]cn1 | Sodium- and chloride-dependent taurine transporter (SLC6A6, Homo sapiens, UniProt P31641, Y138A) | binding, microscale thermophoresis |  | 3.91 µM, room temperature, with: 50 nM labelled protein | higher = more binding | normalised MST signal | 0.00225
CC(C)[C@@H](O)CC[C@@H](C)[C@H]1CC[C@H]2[C@@H]3CC=C4C[C@@H](O)CC[C@]4(C)[C@H]3CC[C@]12C | Glutamate NMDA receptor; GRIN1/GRIN2B (GRIN1/GRIN2B, Homo sapiens, UniProt Q05586+Q13224, F550A) | positive allosteric modulator, two-electrode voltage clamp | Xenopus oocytes expressing GluN2B-F550A | 10 µM, 0.02% cremophor, with: 100 µM glutamate and glycine | baseline: without compound | current response | 452 ± 23%
CCCCN(C)CCNC(=O)c1cc(-c2ccc(Cl)s2)nc2ccccc12 | Vero-E6 | CellTiter-Glo ATP |  | 72 h, retest 8-point duplicates | baseline: DMSO 0%, hyamine -100%, more negative, more toxic | maximum response | -55.3%
Clc1ccc(-c2ccccc2Cl)cc1 | Estrogen receptor (ESR1, Homo sapiens, UniProt P03372) | reporter gene, agonist | T47D.luc | 24 h | baseline: estradiol | EC25 | 10 µM
COc1ncccc1-c1cnn2ccc(N3CCN(C(=O)OC(C)C)CC3)nc12 | Serine/threonine-protein kinase MRCK gamma (CDC42BPG, Homo sapiens, UniProt Q6DT37) | KINOMEscan binding |  | 1 µM | baseline: untreated control | remaining binding | 97%
O=C(Nc1cccnn1)N1CCC(=Cc2cccc(Oc3ccc(C(F)(F)F)cn3)c2)CC1 | Tmem97 | radioligand binding, inhibitor |  | 50 µM, rat, with: [3H]ifenprodil |  | inhibition | 73%
COC1=C(OC)C(=O)C(CC=C(C)C)=C(C)C1=O | Reaction center protein L chain, QB site (pufL, Cereibacter sphaeroides, UniProt P0C0Y8) | QB site binding | Rhodobacter sphaeroides, reaction centres |  |  | free energy difference | -581 meV
O=C(O)COP(=O)(O)O | TPI1 (Saccharomyces cerevisiae, UniProt P00942, Y208S) | enzyme activity, competitive inhibitor, GPDH/NADH-coupled |  | pH 5.7, 25 °C, ionic strength 0.1 NaCl, with: glyceraldehyde 3-phosphate substrate | baseline: mutant over wild type | Ki ratio | 84
Cc1cn([C@H]2C[C@H](O)[C@@H](COP(=O)(O)Oc3ccc([N+](=O)[O-])cc3)O2)c(=O)[nH]c1=O | Autotaxin (ENPP2, Homo sapiens, UniProt Q13822) | phosphodiesterase activity, substrate |  |  |  | Km | 1400 ± 100 µM
Nc1ccncc1 | Glutamate receptor 2 (Homo sapiens, UniProt P42262) | ion current, agonist, automated patch clamp | HEK293 | 10 µM |  | activation | 3%
O=C(c1ccc(Cl)cc1)N1CCN2C(=O)N(OC(=O)N3CCOc4ccccc43)C(=O)C2C1 (centres unmarked) | Testis-expressed protein 30 (TEX30, Homo sapiens, UniProt Q5JUR7) | enzyme activity, inhibitor, MS-based ABPP | SW-620 in situ | 10 µM, 2 h, 37 °C | baseline: compound over DMSO, lower = stronger inhibition | median ratio | 1.07
O=C(O)C(/C=C/c1c(Cl)cccc1Cl)=N\Nc1nc(-c2ccc(Br)cc2)cs1 | ache | Ellman |  |  | baseline: IC50 BChE over IC50 AChE | selectivity index | 12.9
COC(=O)[C@@]1(O)C[C@H]2O[C@]1(C)n1c3ccccc3c3c4c(c5c6ccccc6n2c5c31)C(=O)NC4 | Mitogen-activated protein kinase 3 (MAPK3, Homo sapiens, UniProt P27361) | ADP-Glo |  | 12.1 µM, with: MBP substrate |  | kinase activity | 109% and 104% and 96.5%
Nc1ncnc2c1ncn2[C@@H]1O[C@H](COP(=O)(O)OP(=O)(O)O)[C@@H](O)[C@H]1O | Cell cycle histidine kinase CckA, R374A; cytoplasmic region (Caulobacter vibrioides, UniProt Q9X688, R374A) | isothermal titration calorimetry | Caulobacter crescentus | concentration not given, 25 °C, with: without c-di-GMP |  | binding enthalpy (ΔH) | -2.2 kcal/mol
COc1ccc2[nH]c3c(c2c1)CCN(C)CC3.Cl | Nicotinic acetylcholine receptor alpha9/alpha10 (Rattus norvegicus, UniProt P43144+Q9JLB5) | ion current, inhibitor, two-electrode voltage clamp | Xenopus laevis oocytes, rat | with: 10 µM acetylcholine |  | Hill coefficient | 1.6 ± 0.2
C[C@H]1CN(c2n[nH]c3nc(N[C@H]4CC[C@H](NS(=O)(=O)CCC(F)(F)F)CC4)ncc23)CCO1 | E3 ubiquitin-protein ligase UBR4 (UBR4, Homo sapiens, UniProt Q5T4S7) | inhibitor, Kinobeads competition profiling |  | 0.032 µM | baseline: vehicle | relative abundance | 1
